Assay results collected from several papers.
Lines come from different studies, so protocols differ. Several values in a cell are separate wells, animals, samples, runs or records. ± gives the spread as reported.

The IC50 of `CC(C)c1ccc(N(C)c2ccc3c(c2)OCC[C@H]3CNc2cnccc2C(=O)O)cc1` is reported as 26.2 nM (GP2d; cell viability, CellTiter-Glo; 7 days).
`COC(=O)c1cc(NC2=NC(=O)C(=Cc3ccc(N(C)C)cc3)S2)ccc1OC(C)=O` gave a metabolite level of -0.21 fold change (MCF7; GC-MS, measured: L-Lysine; 1 µM; relative to: DMSO).
The viability of `CCCCCCCCN(CCC(=O)Nc1ccccc1)C(=O)c1ccc(C#N)cc1` is reported as 56 ± 4% (progeroid mouse fibroblasts, Lmna G609G/G609G; MTT; 2 µM, 72 h; relative to: vehicle-treated wild type).
With `COC(=O)c1cc(NC2=NC(=O)C(=Cc3ccc(C)cc3)S2)ccc1OC(C)=O` the metabolite level was 0.34 fold change (MCF7; GC-MS, measured: Dl-Ornithine; 1 µM; relative to: DMSO).
With `O=C(Nc1cccc(Sc2ccc3c(/C=C/c4ccccn4)n[nH]c3c2)c1)c1ccco1` the GI50 was 3300 nM (Ba/F3 TEL-VEGFR3; cell growth, CCK-8).
With `COc1ccccc1-c1ccncc1C(=O)Nc1nnc(OCc2ccc(Cl)cc2)s1` the colony survival was 25.8% and 0% (PEO1 BRCA2-mutant ovarian cancer; 0.25 µM, together with: olaparib 0.25 µM).
`C=CC(=O)N1[C@@H](c2ccc3c(c2)OCO3)c2[nH]c3ccccc3c2C[C@H]1C(=O)NC1CC1` — result for “mean neuron degeneration”: 88.2% (rat DRG neurons; 0.04115 µM, 48 h, together with: vincristine 40 nM).
Under “cells in G0/G1 phase”, `CCC(=CCc1c(O)cc2c(c1O)C(=O)CC(c1ccc(O)cc1)O2)CC` (stereo not shown) is recorded as 42.8% (HeLa; flow cytometry, PI staining; 12 µM, 48 h).
The cell uptake of `CC(C)Cc1ccc(C(C)C(=O)N[C@@H](CCCCNC(=O)CCOCCOCCOCCOCCOCCOCCNC(=O)CN2CCN(CC(=O)[O-])CCN(CC(=O)[O-])CCN(CC(=O)[O-])CC2)C(=O)Nc2cccc3c(C(=O)NCC(=O)N4CC(F)(F)C[C@H]4C#N)ccnc23)cc1.[177Lu+3]` (stereo partly shown) is reported as 12.74 ± 0.07% (U-87 MG; 4 h; relative to: added dose).
`O=C(CC(=O)Nc1ccc2[nH]nc(/C=C/c3ccccn3)c2c1)Nc1cccc(F)c1` gave a GI50 of 330 nM (Ba/F3 TEL-VEGFR2; cell growth, CCK-8).
With `C=C(NC(=O)c1csc(-c2ccc(NC(=O)CCCCCBr)cc2)n1)C(=O)NC(=C)C(=O)OC` the EC50 was 2000 nM (NCI-H1792; cell growth or viability).
With `Fc1ccc(Nc2nc(NC3CCCCC3)c3cc(Br)ccc3n2)cc1F` the pIC50 was 6.5 (transfected HEK293 cells; β-arrestin2 recruitment, negative allosteric modulator, BRET; 30 min pre-incubation, β1AR ECL1/2 chimera, together with: isoproterenol 1 µM).
For `CO[C@@H]1[C@@H](OC(N)=O)[C@@H](O)[C@H](Oc2ccc3c(O)c(NC(=O)c4ccc(O)c(CC=C(C)C)c4)c(=O)oc3c2C)OC1(C)C`, the colony count was 0.1 (DLD-1 BRCA2-/-; 200 µM, replicate 1).
The GI50 of `CCN(C(=O)c1cc(F)ccc1Oc1nncnc1N1CCC2(C1)CN([C@H](CCCN(C)CCOC)C(C)C)C2)C(C)C` is reported as greater than 10000 nM (PANC-1; cell growth or viability; 7 days).
With `O=C(CCCCCOc1ccc2ccccc2c1)N[C@@H](CO)C[C@@H](O)c1ccc(-c2ccccc2)cc1` the sphingomyelin level was 4200 pmol/sample and 4280 pmol/sample and 4020 pmol/sample (HeLa; CERT activity, HPLC-MS/MS lipidomics, measured: sphingomyelin 20; 1 µM, 24 h, not cell-number normalised).
Under “log2 fold change”, `C=CC(=O)N1CCCC(n2c(=O)c3ncccc3n(Cc3ccc(Oc4ccccc4)cc3)c2=O)C1` (stereo not shown) is recorded as 0.48 (Rec1; measured: JUNB; concentration not given; relative to: untreated).
The pRSK/tubulin ratio of `CN(C)c1ccc(-n2cc(COC(=O)[C@@]3(C)C=C(C(=O)OC(C)(C)C)C(=O)CC3)nn2)cc1` is reported as 0.142 (HeLa; quantitative western blot; concentration not given, 20 (unit not given), together with: EGF).
The relative growth of `O=C(Nc1ccccc1)c1cccc([C@@H]2C[C@H]2NC2CCC2)c1` (racemic) is reported as 105% and 90.3% and 97.2% (SET-2; cell growth, CellTiter-Glo; 1 µM, 7 d; relative to: vehicle).
For `COc1cc(N2CCN(C(=O)C3CCCN3)CC2)ccc1Nc1ncc(Cl)c(Nc2ccccc2P(C)(C)=O)n1` (stereo not shown), “early apoptotic cells” read 3.5% (Ba/F3 EML4-ALK; annexin V flow cytometry; concentration not given, 1 h).
`CNS(=O)(=O)Nc1nccc(Cc2c(C)c3ccc(Oc4ncccc4F)cc3oc2=O)c1F` has an IC50 of 719 nM (NCI-H2110; cell viability; 7 days).
With `CCN(CC)CC(=O)Nc1cccc(-n2cc(-c3ccc4ccc(-c5cn(-c6cccc(NC(=O)CN(CC)CC)c6)nn5)cc4c3)nn2)c1` the fold regulation was 1.02 (RCC4; PCR angiogenesis array, measured: FGF2; 5 x IC50, 4 h, normoxia; relative to: untreated).
With `CCOc1cncc(-c2ccc(NC(=O)C3(c4ccnc(NS(=O)(=O)C5CC5)n4)CCOCC3)nc2)n1` the IC50 was 84 nM (DND-39; cell proliferation, CellTiter-Glo; 72 h, lymphoid haematological cancer).
`CN1CCCNC(=O)c2cccc(c2)C(=O)NCCCN(C)CCCNc2cccc3c2C(=O)c2cccc(c2C3=O)NCCC1`: “log2 fold change” 0.595 (SAS; RNA-Seq, measured: WBP4 mRNA; 1 µM, 6 h; relative to: untreated cells).
The SM/Cer ratio of `CCCCCCCCCCCC(=O)N[C@@H](CO)C[C@@H](O)c1cccc(CCCCCC)c1` is reported as 17 ,1 (HeLa; HPLC-MS-MS lipidomics, measured: C18 SM and ceramide; 1 µM, 24 h; relative to: SM over Cer).
For `Fc1ccc(Nc2nc(NC3CCCCC3)c3cc(C(F)(F)F)ccc3n2)cc1F`, the pIC50 was 6.8 (transfected HEK293 cells; β-arrestin2 recruitment, negative allosteric modulator, BRET; 30 min pre-incubation, β1AR ECL1 chimera, together with: isoproterenol 1 µM).
For `C1=[N+]2CCCC[N+]3=Cc4ccc5[n]4[Au-]23[n]2c1ccc2-c1nc2ccccc2nc1-5.F[P-](F)(F)(F)(F)F`, the TGI was 4.46 -log M (KM12; NCI60 five-dose screen).
Under “log2 fold change”, `Cc1ncsc1-c1ccc(C(C)NC(=O)C2CC(O)CN2C(=O)C(NC(=O)CCCCCCCCCCN2CCCC(Nc3ncc(Cl)c(Nc4ccccc4S(=O)(=O)C(C)C)n3)C2)C(C)(C)C)cc1` (stereo not shown) is recorded as -1.38 (22Rv1; RNA-seq, measured: TNK1 mRNA; concentration not given; relative to: DMSO).
`O=C(NCc1cc(F)cc(F)c1)[C@@]1(O)CCN(c2ccc3[nH]ccc3c2)C1=O` has an efficacy of 39% (LXFA526 lung adenocarcinoma cells; colony formation, soft agar clonogenic; concentration not given).
Under “log2 fold change”, `Cn1ncc2cc(-c3cncc(Cl)c3N3CCC4(CCNC4=O)CC3)ccc21` is recorded as 2 (LS174T; gene expression, microarray, measured: GBP2 mRNA; concentration not given, 4 h; relative to: untreated cells).
`CNC(NN=Cc1ccc([N+](=O)[O-])o1)=[S+][Au-][Cl]`: “cell fraction ANV+/PI−” 17.4 ± 1.9% (CAKI-1; annexin V/PI flow cytometry; 10 µM, 72 h).
For `O=C(N1CCCC1)n1cc(-c2ccc(-c3ccccc3)cc2)nn1`, the SILAC ratio was 0.94 (mouse T cells; N-terminal labelling proteomics, measured: LARP4 N-terminal peptides; 0.001 µM, 6 h; relative to: DMSO).
